{"data": "Measured values pooled from the literature", "Histone acetyltransferase RTT109 with Vps75": "Histone acetyltransferase RTT109, with Vps75 (Saccharomyces cerevisiae, UniProt Q07794)", "note": "Compare with care: the assays were run in different laboratories. ± marks the error that the study gave.", "chain of UniProt Q07794 (whole entry, looked up)": "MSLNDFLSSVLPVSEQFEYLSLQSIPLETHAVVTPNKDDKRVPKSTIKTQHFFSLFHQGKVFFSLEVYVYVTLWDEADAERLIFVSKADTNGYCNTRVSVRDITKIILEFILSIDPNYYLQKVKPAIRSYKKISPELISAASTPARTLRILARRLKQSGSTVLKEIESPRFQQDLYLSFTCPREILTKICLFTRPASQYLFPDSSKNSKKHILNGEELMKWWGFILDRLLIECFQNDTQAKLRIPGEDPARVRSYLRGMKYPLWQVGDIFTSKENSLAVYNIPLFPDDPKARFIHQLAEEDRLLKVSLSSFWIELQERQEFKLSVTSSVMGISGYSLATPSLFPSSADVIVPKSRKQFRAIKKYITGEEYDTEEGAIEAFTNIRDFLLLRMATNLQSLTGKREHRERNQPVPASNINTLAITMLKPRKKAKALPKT", "chain of UniProt Q9SCZ4 (whole entry, unmodified, looked up)": "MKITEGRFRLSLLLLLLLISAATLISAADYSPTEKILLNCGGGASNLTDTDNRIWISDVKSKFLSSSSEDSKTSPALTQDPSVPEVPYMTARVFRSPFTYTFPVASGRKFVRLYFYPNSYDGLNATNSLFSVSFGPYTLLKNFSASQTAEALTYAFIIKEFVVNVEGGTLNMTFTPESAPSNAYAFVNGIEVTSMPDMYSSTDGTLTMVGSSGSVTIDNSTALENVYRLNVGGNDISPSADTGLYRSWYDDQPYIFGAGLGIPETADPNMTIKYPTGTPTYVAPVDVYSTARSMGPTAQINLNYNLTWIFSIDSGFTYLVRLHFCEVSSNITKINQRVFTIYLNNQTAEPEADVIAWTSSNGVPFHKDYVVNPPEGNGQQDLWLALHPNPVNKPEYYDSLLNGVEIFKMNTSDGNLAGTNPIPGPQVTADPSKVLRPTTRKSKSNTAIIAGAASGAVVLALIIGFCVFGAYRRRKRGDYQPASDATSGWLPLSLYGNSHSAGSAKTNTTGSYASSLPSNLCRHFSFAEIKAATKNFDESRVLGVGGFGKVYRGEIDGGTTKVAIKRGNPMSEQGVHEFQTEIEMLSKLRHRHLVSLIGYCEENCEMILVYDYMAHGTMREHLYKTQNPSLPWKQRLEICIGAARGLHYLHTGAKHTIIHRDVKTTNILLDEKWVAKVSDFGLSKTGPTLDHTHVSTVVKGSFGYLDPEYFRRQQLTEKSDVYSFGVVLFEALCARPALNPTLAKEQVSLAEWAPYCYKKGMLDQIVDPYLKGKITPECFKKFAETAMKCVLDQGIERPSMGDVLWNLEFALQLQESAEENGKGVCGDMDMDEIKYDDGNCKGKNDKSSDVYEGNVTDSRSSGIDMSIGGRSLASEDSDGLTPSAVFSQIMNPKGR", "chain of UniProt Q9NRM7 (whole entry, looked up)": "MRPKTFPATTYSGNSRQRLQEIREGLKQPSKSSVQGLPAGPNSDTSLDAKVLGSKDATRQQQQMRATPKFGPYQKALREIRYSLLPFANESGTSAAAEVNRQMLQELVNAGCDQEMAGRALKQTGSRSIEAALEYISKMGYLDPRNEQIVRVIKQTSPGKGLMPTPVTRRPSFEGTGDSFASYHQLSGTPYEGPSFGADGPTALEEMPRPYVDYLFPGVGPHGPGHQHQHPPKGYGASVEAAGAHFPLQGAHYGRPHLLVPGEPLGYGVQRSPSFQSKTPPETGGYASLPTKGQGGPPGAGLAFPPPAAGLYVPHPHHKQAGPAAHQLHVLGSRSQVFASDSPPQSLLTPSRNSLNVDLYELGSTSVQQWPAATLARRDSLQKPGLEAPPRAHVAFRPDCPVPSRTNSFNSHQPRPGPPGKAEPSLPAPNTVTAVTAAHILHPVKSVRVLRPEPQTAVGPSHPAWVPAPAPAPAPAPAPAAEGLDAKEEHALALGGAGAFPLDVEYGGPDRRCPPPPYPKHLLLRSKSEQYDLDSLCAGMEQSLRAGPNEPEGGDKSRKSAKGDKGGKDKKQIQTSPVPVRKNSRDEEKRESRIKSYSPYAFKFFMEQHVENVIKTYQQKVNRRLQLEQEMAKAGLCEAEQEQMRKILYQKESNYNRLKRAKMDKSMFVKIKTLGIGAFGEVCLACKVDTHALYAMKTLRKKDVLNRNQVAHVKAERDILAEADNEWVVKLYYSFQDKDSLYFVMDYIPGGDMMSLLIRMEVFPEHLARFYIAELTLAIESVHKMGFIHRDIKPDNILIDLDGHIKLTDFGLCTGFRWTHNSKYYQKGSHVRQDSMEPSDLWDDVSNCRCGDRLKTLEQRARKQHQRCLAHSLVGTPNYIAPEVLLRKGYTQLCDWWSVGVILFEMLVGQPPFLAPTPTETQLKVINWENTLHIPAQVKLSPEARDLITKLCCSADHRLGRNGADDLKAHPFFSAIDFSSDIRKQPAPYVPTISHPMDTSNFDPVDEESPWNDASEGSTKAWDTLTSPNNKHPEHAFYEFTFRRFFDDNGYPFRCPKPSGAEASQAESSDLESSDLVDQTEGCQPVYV", "chain of UniProt P07948 (whole entry, looked up)": "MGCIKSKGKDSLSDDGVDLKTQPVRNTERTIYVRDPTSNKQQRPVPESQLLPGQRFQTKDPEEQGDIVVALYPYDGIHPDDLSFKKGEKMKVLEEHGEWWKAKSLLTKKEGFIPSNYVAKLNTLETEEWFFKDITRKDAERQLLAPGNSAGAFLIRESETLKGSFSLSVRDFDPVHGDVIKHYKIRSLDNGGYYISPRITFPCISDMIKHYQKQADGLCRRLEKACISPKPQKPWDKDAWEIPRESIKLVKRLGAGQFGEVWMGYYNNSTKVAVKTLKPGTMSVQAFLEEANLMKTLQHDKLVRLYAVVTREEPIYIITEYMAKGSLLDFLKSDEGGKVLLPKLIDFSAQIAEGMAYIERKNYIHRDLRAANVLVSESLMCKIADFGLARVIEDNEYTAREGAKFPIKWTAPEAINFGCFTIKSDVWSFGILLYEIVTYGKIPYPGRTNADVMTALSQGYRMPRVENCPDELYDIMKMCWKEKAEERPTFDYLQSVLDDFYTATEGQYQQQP", "chain of UniProt Q8IXJ6 (whole entry, looked up)": "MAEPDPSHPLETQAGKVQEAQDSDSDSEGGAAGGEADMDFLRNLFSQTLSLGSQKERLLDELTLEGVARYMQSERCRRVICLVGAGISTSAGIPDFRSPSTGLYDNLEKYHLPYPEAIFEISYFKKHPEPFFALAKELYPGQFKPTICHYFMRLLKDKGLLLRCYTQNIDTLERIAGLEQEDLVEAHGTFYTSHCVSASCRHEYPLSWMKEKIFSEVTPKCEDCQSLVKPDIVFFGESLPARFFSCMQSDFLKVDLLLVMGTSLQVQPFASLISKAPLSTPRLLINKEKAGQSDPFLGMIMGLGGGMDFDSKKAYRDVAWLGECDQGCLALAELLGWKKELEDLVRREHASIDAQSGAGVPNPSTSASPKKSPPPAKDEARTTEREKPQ", "chain of UniProt Q15375 (whole entry, looked up)": "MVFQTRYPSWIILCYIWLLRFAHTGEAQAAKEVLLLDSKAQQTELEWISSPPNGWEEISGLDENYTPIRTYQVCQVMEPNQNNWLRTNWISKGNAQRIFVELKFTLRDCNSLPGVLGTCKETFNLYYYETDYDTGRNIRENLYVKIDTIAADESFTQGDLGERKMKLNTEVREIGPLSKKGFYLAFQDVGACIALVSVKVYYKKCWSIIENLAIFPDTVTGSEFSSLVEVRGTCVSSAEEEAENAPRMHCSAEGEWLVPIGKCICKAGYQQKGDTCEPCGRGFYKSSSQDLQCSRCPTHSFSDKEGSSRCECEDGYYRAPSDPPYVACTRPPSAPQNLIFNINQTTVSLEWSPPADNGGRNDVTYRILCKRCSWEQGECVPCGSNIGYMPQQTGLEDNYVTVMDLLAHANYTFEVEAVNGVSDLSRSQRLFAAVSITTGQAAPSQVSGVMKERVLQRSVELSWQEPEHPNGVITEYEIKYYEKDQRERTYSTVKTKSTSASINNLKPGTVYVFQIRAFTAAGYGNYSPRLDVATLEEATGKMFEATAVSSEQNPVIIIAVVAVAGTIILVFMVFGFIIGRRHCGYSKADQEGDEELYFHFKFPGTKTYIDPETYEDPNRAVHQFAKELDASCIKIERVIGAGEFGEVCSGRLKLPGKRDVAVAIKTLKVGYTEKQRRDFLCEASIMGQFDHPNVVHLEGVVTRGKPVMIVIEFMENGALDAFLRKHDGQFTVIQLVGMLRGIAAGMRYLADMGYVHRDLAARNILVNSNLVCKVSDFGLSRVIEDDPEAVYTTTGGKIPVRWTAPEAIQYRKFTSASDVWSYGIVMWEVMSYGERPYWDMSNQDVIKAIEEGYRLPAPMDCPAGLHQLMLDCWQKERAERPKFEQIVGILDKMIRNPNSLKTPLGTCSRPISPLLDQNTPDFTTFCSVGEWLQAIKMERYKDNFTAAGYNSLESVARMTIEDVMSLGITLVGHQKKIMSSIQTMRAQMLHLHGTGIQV"}
{"SMILES": "O=S1(=O)C=C(SCCN2CCOCC2)c2ccccc21", "target or system": "Histone acetyltransferase RTT109 with Vps75", "assay": "enzyme activity, inhibitor, HTS, CPM-based, dose response", "quantity": "IC50", "result": "> 125 µM"}
{"SMILES": "NS(=O)(=O)C#Cc1ccccc1", "target or system": "Toxoplasma gondii", "assay": "parasite growth", "test system": "HFF, bradyzoite, alkaline-induced", "quantity": "EC50", "result": "19.6 µM"}
{"SMILES": "Cc1cc(C)nc(SC2=CS(=O)(=O)c3ccccc32)n1", "target or system": "Histone acetyltransferase RTT109 with Vps75", "assay": "enzyme activity, inhibitor, HTS, CPM-based, dose response", "quantity": "IC50", "result": "> 125 µM"}
{"SMILES": "C[C@@]12C[C@@]3(O)O[C@@H](O1)[C@]1(COC(=O)c4ccccc4)[C@H]3C[C@@]12O[C@@H]1O[C@H](CO)[C@@H](O)[C@H](O)[C@H]1O", "target or system": "serine/threonine phosphatase Stp1 (Staphylococcus aureus, UniProt A0A0H2XF73)", "assay": "enzyme activity, inhibitor", "conditions": "added: pNPP", "quantity": "IC50", "result": "> 208 µM"}
{"SMILES": "CC(=O)N1/C(=C\\c2nc3cc(C(=O)N4CCOCC4)ccc3s2)C(=O)c2ccccc21", "target or system": "RAF proto-oncogene serine/threonine-protein kinase, RBD (RAF1, Homo sapiens, UniProt P04049)", "assay": "HRAS G12V-GppNHp binding, allosteric inhibitor, ELISA", "conditions": "1 h preincubation, pH 7.4, 30 °C", "quantity": "IC50", "result": "1.15 µM"}
{"SMILES": "CN(C)C(=O)c1cc2cnc(Nc3cc(C(F)(F)F)c(-c4cccc5c(=O)cc(N6CCOCC6)oc45)cn3)nc2n1C1CCCC1", "target or system": "Bromodomain-containing protein 4, BD1 (BRD4, Homo sapiens, UniProt O60885)", "assay": "inhibitor", "quantity": "IC50", "result": "8.97 µM"}
{"SMILES": "O=[N+]([O-])c1c(NC2CS(=O)(=O)c3ccccc32)nc2ccccn12 (stereo not shown)", "target or system": "Histone acetyltransferase RTT109 with Vps75", "assay": "enzyme activity, inhibitor, HTS, CPM-based, dose response", "quantity": "IC50", "result": "> 125 µM"}
{"SMILES": "Cc1cc(OC(C)C)ccc1C(=O)C(C)(C)NC(=O)c1sccc1C", "target or system": "succinate dehydrogenase (Botrytis cinerea, UniProt A0A384J5E4+D2IH01+D2IH03)", "assay": "enzyme activity, inhibitor, DCPIP reduction", "test system": "Botrytis cinerea, mitochondrial fraction", "quantity": "IC50", "result": "0.00362 µM"}
{"SMILES": "Cc1ccc(Cn2cc(COc3cccc(Cc4cnc(NC(=O)CSc5nc(C)cc(C)n5)s4)c3)nn2)cc1", "target or system": "SIRT2 (Homo sapiens, UniProt Q8IXJ6)", "assay": "inhibitor", "quantity": "IC50", "result": "0.16 ± 0.04 µM"}
{"SMILES": "Cn1cc(-c2ccc(-c3cncc(Cl)c3N3CCC4(CCNC4=O)CC3)cc2)cn1", "target or system": "COLO 205", "assay": "gene expression, microarray, measured: IFIT1 mRNA", "conditions": "concentration not given, 2 h", "scale": "reference: untreated cells", "quantity": "log2 fold change", "result": 1.61}
{"SMILES": "CC[C@@H]1[C@H](F)C(=O)N[C@@H]1COc1nccc2cc(C(N)=O)c(OC)cc12", "target or system": "LATS2 (Homo sapiens, UniProt Q9NRM7)", "assay": "ATP-site probe binding, ActivX profiling", "test system": "THP-1 cell lysate", "conditions": "Lys2 site", "quantity": "IC50", "result": "0.88 µM"}
{"SMILES": "C[n+]1cc2c3c(ccc2c2ccc4cc5c(cc4c21)OCO5)OCO3", "target or system": "Toxoplasma gondii", "assay": "parasite growth, luciferase reporter", "test system": "HFF, tachyzoite", "conditions": "72 h", "quantity": "EC50", "result": "0.343 µM"}
{"SMILES": "CN1CCN(c2ccc(Nc3ncc4cc(C#N)c(=O)n(C5CCCC5)c4n3)cc2)CC1", "target or system": "EPHA7 (Homo sapiens, UniProt Q15375)", "quantity": "IC50", "result": "7.17 µM"}
{"SMILES": "CC(C)(C)c1ccc(OC2=CS(=O)(=O)c3ccccc32)cc1", "target or system": "Histone acetyltransferase RTT109 with Vps75", "assay": "enzyme activity, inhibitor, HTS, CPM-based, dose response", "quantity": "IC50", "result": "> 125 µM"}
{"SMILES": "N[C@@H]1C[C@]1(F)c1ccc(C(F)(F)F)cc1 (relative stereo)", "target or system": "tyramine oxidase (Arthrobacter sp.)", "assay": "enzyme activity, inhibitor, spectrophotometric benzylamine oxidation", "conditions": "10 min preincubation, pH 7.2, 25 °C, added: benzylamine 0.6 mM substrate", "quantity": "IC50", "result": "3.6 µM"}
{"SMILES": "c1ccc(CNc2nc(-c3ccccc3)no2)cc1", "target or system": "Histone acetyltransferase RTT109 with Vps75", "assay": "enzyme activity, inhibitor, HTS, CPM-based, dose response", "quantity": "IC50", "result": "> 125 µM"}
{"SMILES": "CN(C)C(=O)c1cc2cnc(Nc3cncc(-c4ccc5c(=O)cc(N6CCOCC6)oc5c4)c3)nc2n1C1CCCC1", "target or system": "Bromodomain-containing protein 4, BD2 (BRD4, Homo sapiens, UniProt O60885)", "assay": "inhibitor", "quantity": "IC50", "result": "> 10 µM"}
{"SMILES": "Cc1cnc(-c2ccc(-c3ccc(NC(=O)Nc4c(F)cc(F)cc4F)cc3F)c3c2C(=O)NC3)[nH]1", "target or system": "Tyrosine-protein kinase Lyn, isoform B (LYN, Homo sapiens, UniProt P07948)", "assay": "enzyme activity, inhibitor, mobility shift", "conditions": "added: ATP 1 mM", "quantity": "IC50", "result": "0.0169 µM"}
{"SMILES": "CC(=O)c1cnc2ccc(-c3cc(Cl)c(O)c(Cl)c3)nc2c1N[C@H]1CC[C@H](CN(C)C)CC1", "target or system": "Receptor-like protein kinase FERONIA (FER, Arabidopsis thaliana, UniProt Q9SCZ4, Y610A)", "assay": "kinase activity, inhibitor, ADP-Glo", "quantity": "IC50", "result": "> 100 µM"}
{"note": "Some of these lines once more:"}
{"SMILES": "O=[N+]([O-])c1c(NC2CS(=O)(=O)c3ccccc32)nc2ccccn12 (stereo not shown)", "target or system": "Histone acetyltransferase RTT109 with Vps75", "assay": "enzyme activity, inhibitor, HTS, CPM-based, dose response", "quantity": "IC50", "result": "> 125 µM"}
